Assay results gathered from unrelated publications.
Each line is one published result; not all experiments were run side by side.
Organism: Staphylococcus aureus

SMILES	method	strain	medium	time	temperature	with	MIC
CC[C@H](C)[C@H](N)C(=O)N[C@@H](CC(C)C)C(=O)NCC(=O)N[C@@H](CCCNC(=N)N)C(=O)N[C@H](C(=O)N[C@@H](Cc1c[nH]c2ccccc12)C(=O)N[C@@H](CCCCN)C(=O)NCC(=O)N[C@H](C(=O)N[C@@H](CCCCN)C(=O)N[C@@H](CC(=O)O)C(=O)N[C@H](C(=O)N[C@@H](CC(C)C)C(N)=O)[C@@H](C)CC)[C@@H](C)CC)[C@@H](C)CC	broth microdilution	ATCC 25923	Mueller-Hinton broth	16 h	37 °C	–	6.25 µM
CC[C@H](C)[C@H](NC(=O)CN)C(=O)N[C@@H](C)C(=O)N[C@@H](CC(=O)O)C(=O)N[C@@H](C)C(=O)N[C@H](C(=O)N[C@@H](CCCCN)C(=O)N[C@@H](CCCCN)C(=O)N[C@H](C(=O)N[C@@H](C)C(=O)N[C@@H](CCCCN)C(=O)N[C@@H](C)C(=O)N[C@@H](CC(C)C)C(=O)NCC(N)=O)[C@@H](C)CC)[C@@H](C)CC	–	ATCC 29213	Mueller-Hinton broth	12 h	37 °C	–	8 µg/mL
Cn1c(=O)cnc2ccc(F)c(CCNC[C@H]3CN(c4cnc5c(n4)NC(=O)CO5)C(=O)O3)c21	–	ATCC 29213	–	–	–	–	0.008 µg/mL
N=C(N)NCCC[C@H](NC(=O)[C@H](Cc1c[nH]c2ccccc12)NC(=O)[C@@H](N)CCCNC(=N)N)C(=O)N[C@@H](Cc1c[nH]c2ccccc12)C(=O)N[C@@H](CCC(N)=O)C(=O)N[C@@H](Cc1ccccc1)C(=O)N[C@@H](CCC(N)=O)C(=O)N[C@@H](Cc1ccccc1)C(=O)N[C@@H](CCCCN)C(N)=O	broth microdilution, optical density	ATCC 25923	–	–	–	–	77 µM
c1ccc(CCOC2CCCc3c2[nH]c2ccccc32)cc1 (stereo not drawn)	broth microdilution	SG511 daptomycin-resistant	–	–	–	–	> 16 µg/mL
CC(C)C[C@@H](NC(=O)CNC(=O)[C@@H](CCCCN)NC(=O)[C@@H](CC(C)C)NC(=O)[C@@H](CCCCN)NC(=O)[C@@H](CCCNC(=N)N)NC(=O)[C@@H](CC(C)C)NC(=O)[C@@H](CC(C)C)NC(=O)[C@@H](CCCNC(=N)N)NC(=O)[C@H](N)CCCNC(=N)N)C(=O)N[C@H](CCCCN)C(=O)N[C@H](CCCCN)C(=O)N[C@H](Cc1ccc(O)cc1)C(=O)N[C@H](CC(C)C)C(=O)N[C@H](Cc1ccc(O)cc1)C(=O)N[C@H](Cc1ccccc1)C(=O)N[C@H](CCCCN)C(=O)N[C@H](CC(C)C)C(=O)N[C@H](CCC(N)=O)C(=O)N[C@H](CC(C)C)C(=O)N[C@H](CC(C)C)C(=O)N[C@H](CCCCN)C(=O)N[C@H](CCCCN)C(N)=O	broth microdilution	KCTC 1621	Mueller-Hinton broth	24 h	37 °C	–	4 µM
CC[C@H](C)[C@H](NC(=O)[C@H](Cc1ccc(O)cc1)NC(=O)[C@@H](NC(=O)[C@H](Cc1ccc(O)cc1)NC(=O)[C@@H]1CCCN1C(=O)[C@@H](NC(=O)[C@H](C)N)[C@@H](C)CC)[C@@H](C)CC)C(=O)N[C@@H](Cc1c[nH]c2ccccc12)C(=O)N[C@@H](CCCNC(=N)N)C(=O)N[C@@H](CC(C)C)C(=O)N[C@@H](CC(C)C)C(=O)N[C@@H](CCCNC(=N)N)C(=O)N[C@@H](CCCCN)C(=O)NCC(=O)O	broth microdilution	ATCC 19609	–	18 h	37 °C	–	3.75 µM
CN[C@H](CC(C)C)C(=O)N[C@H]1C(=O)N[C@@H](CC(N)=O)C(=O)N[C@H]2C(=O)N[C@H]3C(=O)N[C@H](C(=O)N[C@H](C(=O)O)c4cc(O)cc(O)c4-c4cc3ccc4O)[C@H](O)c3ccc(c(Cl)c3)Oc3cc2cc(c3O[C@@H]2O[C@H](CO)[C@@H](O)[C@H](O)[C@H]2O[C@H]2C[C@](C)(N)[C@H](O)[C@H](C)O2)Oc2ccc(cc2Cl)[C@H]1O	–	LIM-2 VISA	–	–	–	–	3 µM
CC[C@H](C)[C@H](NC(=O)[C@H](CCCNC(=N)N)NC(=O)[C@H](CCCNC(=N)N)NC(=O)[C@H](CCCNC(=N)N)NC(=O)[C@H](CCCNC(=N)N)NC(=O)[C@H](CC(C)C)NC(=O)[C@H](CCCNC(=N)N)NC(=O)[C@H](CO)NC(=O)[C@@H](N)CO)C(=O)N[C@H](C(=O)N[C@@H](CC(C)C)C(=O)N[C@@H](CCCNC(=N)N)C(=O)N[C@@H](CCCNC(=N)N)C(=O)N[C@@H](CCCNC(=N)N)C(=O)N[C@@H](CCCNC(=N)N)C(=O)N[C@@H](Cc1ccccc1)C(=O)N[C@@H](CO)C(=O)N[C@@H](C)C(=O)N[C@@H](Cc1ccc(O)cc1)C(N)=O)C(C)C	broth microdilution	–	–	24 h	37 °C	–	32 µM
CC[C@H](C)[C@H](NC(=O)[C@H](CC(C)C)NC(=O)[C@H](CCCCN)NC(=O)[C@H](CC(C)C)NC(=O)CNC(=O)[C@@H](NC(=O)[C@H](CO)NC(=O)[C@@H](NC(=O)[C@@H](NC(=O)[C@H](CCC(N)=O)NC(=O)[C@H](Cc1c[nH]c2ccccc12)NC(=O)[C@H](CCCNC(=N)N)NC(=O)[C@H](CC(N)=O)NC(=O)[C@H](CCCNC(=N)N)NC(=O)[C@H](CCCNC(=N)N)NC(=O)[C@@H](NC(=O)[C@H](Cc1ccccc1)NC(=O)[C@H](CCCNC(=N)N)NC(=O)CNC(=O)[C@H](C)NC(=O)[C@H](CCCNC(=N)N)NC(=O)[C@H](CCCNC(=N)N)NC(=O)[C@H](CCCCN)NC(=O)[C@H](Cc1ccccc1)NC(=O)[C@H](CCCNC(=N)N)NC(=O)CNC(=O)[C@H](Cc1c[nH]c2ccccc12)NC(=O)[C@H](CCCNC(=N)N)NC(=O)CNC(=O)[C@H](CCCNC(=N)N)NC(=O)[C@@H](N)[C@@H](C)O)[C@@H](C)CC)[C@@H](C)CC)[C@@H](C)CC)[C@@H](C)O)C(=O)NCC(=O)O	broth microdilution	MRSA CMCC 43300	–	–	–	–	0.6 µM
CC[C@H](C)[C@H](NC(=O)[C@H](CCCCN)NC(=O)[C@H](CCCCN)NC(=O)CNC(=O)[C@H](CCCCN)NC(=O)[C@H](CC(C)C)NC(=O)[C@H](CCCCN)NC(=O)[C@H](CCCNC(=N)N)NC(=O)[C@@H](NC(=O)[C@H](CC(C)C)NC(=O)[C@H](CCCNC(=N)N)NC(=O)[C@@H](N)CCCNC(=N)N)[C@@H](C)CC)C(=O)N[C@@H](Cc1ccc(O)cc1)C(=O)N[C@@H](CC(C)C)C(=O)N[C@@H](Cc1ccc(O)cc1)C(=O)N[C@@H](Cc1ccccc1)C(=O)N[C@@H](CCCCN)C(=O)N[C@@H](CC(C)C)C(=O)N[C@@H](CCC(N)=O)C(=O)N[C@@H](CC(C)C)C(=O)N[C@@H](CC(C)C)C(=O)N[C@@H](CCCCN)C(=O)N[C@@H](CCCCN)C(N)=O	broth microdilution	KCTC 1621	Mueller-Hinton broth	–	–	NH4Cl 6 µM	16 µM
CC[C@H](C)[C@H](NC(=O)CNC(=O)[C@H](C)NC(=O)[C@@H](NC(=O)[C@@H](NC(=O)[C@@H](NC(=O)[C@H](CCCNC(=N)N)NC(=O)[C@@H](NC(=O)[C@@H](NC(=O)[C@@H](NC(=O)[C@@H]1CCCN1C(=O)[C@H](Cc1c[nH]c2ccccc12)NC(=O)[C@@H](NC(=O)[C@H](CCCNC(=N)N)NC(=O)[C@H](CCCCN)NC(=O)[C@@H](NC(=O)[C@@H](N)CCCNC(=N)N)[C@@H](C)CC)C(C)C)C(C)C)C(C)C)[C@@H](C)CC)[C@@H](C)O)C(C)C)C(C)C)C(=O)N[C@@H](CC(N)=O)C(=O)N[C@@H](CC(C)C)C(=O)N[C@@H](Cc1ccc(O)cc1)C(=O)N[C@@H](CCCNC(=N)N)C(=O)N[C@@H](C)C(=O)N[C@H](C(=O)N[C@@H](CCCCN)C(=O)N[C@@H](CCCNC(=N)N)C(=O)N[C@@H](CCCCN)C(=O)O)[C@@H](C)CC	broth microdilution	ATCC 29213	Mueller-Hinton broth	16 to 20 h	37 °C	–	1.41 µM

Some of these lines once more:
SMILES	method	strain	medium	time	temperature	with	MIC
CC[C@H](C)[C@H](NC(=O)[C@H](CCCCN)NC(=O)[C@H](CCCCN)NC(=O)CNC(=O)[C@H](CCCCN)NC(=O)[C@H](CC(C)C)NC(=O)[C@H](CCCCN)NC(=O)[C@H](CCCNC(=N)N)NC(=O)[C@@H](NC(=O)[C@H](CC(C)C)NC(=O)[C@H](CCCNC(=N)N)NC(=O)[C@@H](N)CCCNC(=N)N)[C@@H](C)CC)C(=O)N[C@@H](Cc1ccc(O)cc1)C(=O)N[C@@H](CC(C)C)C(=O)N[C@@H](Cc1ccc(O)cc1)C(=O)N[C@@H](Cc1ccccc1)C(=O)N[C@@H](CCCCN)C(=O)N[C@@H](CC(C)C)C(=O)N[C@@H](CCC(N)=O)C(=O)N[C@@H](CC(C)C)C(=O)N[C@@H](CC(C)C)C(=O)N[C@@H](CCCCN)C(=O)N[C@@H](CCCCN)C(N)=O	broth microdilution	KCTC 1621	Mueller-Hinton broth	–	–	NH4Cl 6 µM	16 µM
CC[C@H](C)[C@H](NC(=O)CNC(=O)[C@H](C)NC(=O)[C@@H](NC(=O)[C@@H](NC(=O)[C@@H](NC(=O)[C@H](CCCNC(=N)N)NC(=O)[C@@H](NC(=O)[C@@H](NC(=O)[C@@H](NC(=O)[C@@H]1CCCN1C(=O)[C@H](Cc1c[nH]c2ccccc12)NC(=O)[C@@H](NC(=O)[C@H](CCCNC(=N)N)NC(=O)[C@H](CCCCN)NC(=O)[C@@H](NC(=O)[C@@H](N)CCCNC(=N)N)[C@@H](C)CC)C(C)C)C(C)C)C(C)C)[C@@H](C)CC)[C@@H](C)O)C(C)C)C(C)C)C(=O)N[C@@H](CC(N)=O)C(=O)N[C@@H](CC(C)C)C(=O)N[C@@H](Cc1ccc(O)cc1)C(=O)N[C@@H](CCCNC(=N)N)C(=O)N[C@@H](C)C(=O)N[C@H](C(=O)N[C@@H](CCCCN)C(=O)N[C@@H](CCCNC(=N)N)C(=O)N[C@@H](CCCCN)C(=O)O)[C@@H](C)CC	broth microdilution	ATCC 29213	Mueller-Hinton broth	16 to 20 h	37 °C	–	1.41 µM
